Measurements of several laboratories.
FLT3 D835H: Receptor-type tyrosine-protein kinase FLT3 (FLT3, Homo sapiens, UniProt P36888, D835H)
FLT3 N841I: Receptor-type tyrosine-protein kinase FLT3 (FLT3, Homo sapiens, UniProt P36888, N841I)
FLT3 D835Y: Receptor-type tyrosine-protein kinase FLT3 (FLT3, Homo sapiens, UniProt P36888, D835Y)

CNC1C[S+]2CC[S+]3CC[S+](C1)[Ru-4]321([N]=C=S)[n]2c3ccc(OC)cc3c3c4c(c5cc(F)c[n+]1c5c32)C(=O)NC4=O (stereo not shown) — remaining binding (Receptor-type tyrosine-protein kinase FLT3 (FLT3, Homo sapiens, UniProt P36888, K663Q); KinomeScan; 0.1 µM; relative to: untreated): 34%
CCN1CCN(Cc2ccc(NC(=O)c3ccc(C)c(NC(=O)c4cncc(-c5cccs5)c4)c3)cc2C(F)(F)F)CC1 — remaining binding (FLT3 D835H; binding, competition with immobilised ligand; 1 µM): 3.2%
Cc1cnc2nc1Nc1cccc(c1)COC/C=C/COCc1cc(ccc1OCCN1CCOCC1)N2 — remaining binding (FLT3 N841I; binding; 0.1 µM): 1.3%
CC(C)=CC1OC(C)(C)C2C=C3C(=O)C(Cl)=CC(O)C3C3C(O)C4OC4C(=O)C132 (stereo not shown) — remaining binding (Receptor-type tyrosine-protein kinase FLT3 (FLT3, Homo sapiens, UniProt P36888, F691L/ITD); cell-free assay, competition with immobilised ligand; 10 µM): 56%
CNC(=O)C1CCN(c2cc(C)c(F)cc2NC(=O)c2ccc(-c3cc(O)ccc3C)c(C)c2)CC1 — remaining binding (FLT3 D835H; binding, competition with immobilised ligand; 1 µM): 100%
Cc1ccc(-c2c(/C=C(\C#N)C(=O)NC(C)C)n(CCCO)c3ncnc(N)c23)cc1 — remaining binding (FLT3 N841I; cell-free assay, competition with immobilised ligand; 1 µM): 71%
C=CC(=O)N1CCc2ccc(-n3c(=O)ccc4cnc5ccc(-c6cnn(C)c6)cc5c43)cc21 — remaining binding (Receptor-type tyrosine-protein kinase FLT3 (FLT3, Homo sapiens, UniProt P36888, R834Q); KINOMEscan; 1 µM; relative to: DMSO control): 99%
CCN1CCN(Cc2ccc(C(=O)Nc3ccc(C)c(NCc4cnc5[nH]ccc5c4OC)c3)cc2C(F)(F)F)CC1 — remaining binding (Receptor-type tyrosine-protein kinase FLT3 (FLT3, Homo sapiens, UniProt P36888); binding, competition with immobilised ligand; 1 µM): 0.2%
Nc1ncc2c(n1)-c1c([nH]c3ccc(C4=CCOCC4)cc13)CCC2 — remaining binding (FLT3 D835Y; binding, competition with immobilised ligand; 1 µM): 100%
COc1c(Cl)cccc1Nc1c(-c2ccncc2C#C[C@@]2(C)CCCN2C(=O)/C=C/CN(C)C)[nH]c2c1C(=O)NCC2 — remaining binding (FLT3 D835Y; binding, competition with immobilised ligand; 3 µM): 91%
